Experimental data gathered from unrelated publications.
Numbered parts are unrelated; each lists some results of a single study.

Study 1 — method: aptamer microarray, sandwich; form: DNA with 2'F-ANA; sample: in vitro; concentration: 200 nM; added: Cy3 exosite-II aptamer, 400 nM; direction: higher = stronger binding; endpoint: mean fluorescence intensity; sequence: GGTTGGTGTGGTTGG
Target: Prothrombin, mature alpha-thrombin (F2, Homo sapiens, UniProt P00734)
Setting: whole 15-mer aptamer, many near background
2'F-ANA at 2 3 5 6 10 14 15: 52.6 a.u.
2'F-ANA at 2 3 5 7 9 12 15: 196 a.u.
2'F-ANA at 1 4 6 8 11: 97.2 a.u.
2'F-ANA at 1 2 4 7 9 11 12 13 14: 50.2 a.u.
2'F-ANA at 2 4 5 7 9 11 13: 55.6 a.u.
2'F-ANA at 1 7 9 11 13 14: 53.2 a.u.
2'F-ANA at 3 4 5 6 7 8 12 14: 58 a.u.
2'F-ANA at 1 2 3 4 8 9: 214 a.u.
2'F-ANA at 3 6 8 11 12 13 15: 966 a.u.
2'F-ANA at 1 2 3 6 8 10 11 12: 87.8 a.u.
2'F-ANA at 2 3 4 5 6 8 10 11 15: 51.5 a.u.
2'F-ANA at 5 6 9 11 12 13 14 15: 48.7 a.u.
2'F-ANA at 1 2 3 4 6 8 9 12 14 15: 71.6 a.u.
2'F-ANA at 2 5 6 7 8 9 11 12: 131 a.u.
2'F-ANA at 4 5 6 7 8 10 12 13 14: 48.6 a.u.
2'F-ANA at 2 4 5 8 11 12 15: 104 a.u.
2'F-ANA at 1 5 6 7 9 12 13: 71 a.u.
2'F-ANA at 1 3 5 7 8 11: 59.4 a.u.
2'F-ANA at 1 3 4 5 8 9 10 12 15: 60.7 a.u.
2'F-ANA at 1 2 4 5 6 9 10 11 12 13: 51 a.u.
2'F-ANA at 3 4 5 7 8 10 11 12 13 15: 58.7 a.u.
2'F-ANA at 4 5 7 10 12 13 14 15: 47.3 a.u.
2'F-ANA at 2 3 5 7 8 10 14 15: 50.7 a.u.
2'F-ANA at 1 2 5 7 10 12: 57.8 a.u.

Study 2 — method: RNA Bind-n-Seq; form: RNA; sample: in vitro; concentration: 365 nM; baseline: no-protein control; direction: higher = stronger binding; endpoint: RBNS enrichment (R)
Target: RNA binding protein fox-1 homolog 2, RRM domain, GST-SBP tag (RBFOX2, Homo sapiens, UniProt O43251-10, residues 100-194)
Setting: natural RNA segment, single round, ends assumed
Constant ends, left off below: GGGAGUUCUACAGUCCGACGAUC … UGGAAUUCUCGGGUGCCAA
Target sequence (chain): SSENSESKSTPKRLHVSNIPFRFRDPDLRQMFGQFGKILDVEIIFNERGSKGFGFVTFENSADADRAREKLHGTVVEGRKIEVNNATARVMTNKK
GGCCUCCUUGGGAACGUGUAGGCCACGGCUCUGCCACCACUAGGUACCUGCUGAGGGCGCUGGCUCUGCAGAUCAGAACAACGGAGGAUAGCUUUGUGCCUGGACCCAGA: 1.08
UGUUGCAUUAUUUUGAAUAUUGUCUUUUCAUUUUAAUAAAGUUAUAAUACUUAUUUAUGAUACCAUUGUAAUGUUUCUUGCCUAAAGUCUUAUAAAGUGUAUGAAGCAAU: 1.52
AUAUAGAAGCUCAAAGUUAAGGGAUUUGCUGAAGACUGUAAAGUUAAUGGAAGAAUUGAGACAAAAAUCCAGUGUAGCUGGCCACUUAUCCAGGGCUUUUUCUACUUCAU: 0.56
GCGGAACCUUCUCUGUACAGCGCCCCCUUUCUGUUGUGCUAUUGGUUGCAGCUGCCAUGCUCAGAAUGCGUUUUGAGAGCUGAAGCAAGGUGCUUGCAGUCACCUGAGGC: 1.44
CAGCCGUGUGUGCUGUGGAGCCGAGGCCGUCCUGCAGGAAGCCGCGUGACUCCCGCCUCCUCCCUGUGCUCUCUGGCUCUGGACUGUGACUGCGCCUGGAUUCUGCCAUU: 0.375
ACACCCGAGUGUGGCUUUUCUCAAAGAAAGGUGAAGAAGGGGCCUCAGUUCUUACAGUGGGGACCACACUGCUGCCUGCCCCCUUCCCAACUGUGAUUCUCACACACUCA: 0.372
GAGAGCCUGGGUUAAUCAGUUCUGCAGCCCCUACGUGACACUGUGCUAGUUCUCCUUCUUCUGUCUCCUCCUUACCCUGGCCCUGCACCCCUGUACUUAAGAGGGAGAGG: 1.17
UUUCUUAUUUUUAUAUUUUAACUCUAUUCUUGGAUGUAUAAAGUGAACUUUUUCGCUUCUGUAAGUAUGCUCUAUGCACCUCUAACGUUUUAUCCUGUAUUUAUAUGUUG: 0.585
GGCCCUCCUUCCUGAAGACAGUCAGCCUGGGGCUCUUACCCUGAGACAAUGAGGGCCGCAUGAAGAUCUGGUGCUGCGCGGAUGCUGCCCUGGUGAUGCUGUGUGCUGGG: 6.64
AAAUUGUUAUAACUUCACACCUUUUUGAAAUCUGCCCUACAAAAUUUGUUUGGCUUAAACGUCAAAAGCCGUGACAAUUUGUUCUUUGAUGUGAUUGUAUUUCCAAUUUC: 0.464
UUUUACAUGAUUGCAUUCCUACAUUCUUGUAAACUUUAAGUAACUACCAUUGCAGUUUGUUCUUUUUUUAAAGUCUAAUUUGCAGCCAAGAACGAGUAAUUCUCACCCCA: 0.41
UCACUCUCCUCAAGCCAGGACUACCGACCAGCCGGCUAUGGGCACAUUACUCUGUGGCUGCUGGAUUCUUUUCCAGCAUGGCCUGUGGCCUGUGUGAGGCAGAACUGGGA: 0.282

Study 3 — method: RNA Bind-n-Seq; form: RNA; sample: in vitro; concentration: 100 nM; baseline: input RNA pool; direction: higher = stronger binding; endpoint: bound/input enrichment
Target: RING finger protein unkempt homolog, zinc fingers 1-6, SBP tag (UNK, Homo sapiens, UniProt Q9C0B0, residues 30-357)
Sequence of UniProt Q9C0B0 (30-357, looked up): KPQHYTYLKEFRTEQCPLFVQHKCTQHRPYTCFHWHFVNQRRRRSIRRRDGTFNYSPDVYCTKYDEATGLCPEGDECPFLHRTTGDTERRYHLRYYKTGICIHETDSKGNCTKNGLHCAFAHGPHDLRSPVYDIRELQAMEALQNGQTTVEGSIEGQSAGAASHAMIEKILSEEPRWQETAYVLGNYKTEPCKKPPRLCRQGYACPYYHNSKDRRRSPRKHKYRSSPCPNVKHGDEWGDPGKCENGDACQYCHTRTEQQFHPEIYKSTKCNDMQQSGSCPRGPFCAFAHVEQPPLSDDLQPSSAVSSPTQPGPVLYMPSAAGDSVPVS
Setting: RNA with constant flanks, vertebrate orthologous sites, ends assumed
Constant ends, left off below: GGGAGUUCUACAGUCCGACGAUC … CAACAGAGGAUUGAGCAUCA
GGUCAUGUAUAGCAAUUAGAGUGGGUUGCCUUUCUACUUCUCCCGAGAAGAAAUCCCAAAUAGAUUCCUUUCAUGUCAGAUUAUACUGUUCUGAUUUUCUUUUCUAUUAUUUUUACAUAU: 0.772 ratio
GUUUGGCCUACCCAGCCUUCCUCUUAGGAGCGGCUUCAUUUAUGACAAAUGUACUAUAUCGAGUUGAGCUUAUUAUUUUUUUAUUAUCCUGUAAAUAAAGAUGGCACCUCCUACAUUAAA: 1.1 ratio
GCAAAUCCAAUCACUGUGAUAUUUAAAAUAUGCACAGUCUUAAUUCCUUCUCAAUGAUCCUAGUAUUUUUCUAGCUGUAUCUUUAUAUCUCAUACUGUUAUUUAUCAGUUUUGUUCCCCU: 0.854 ratio
UCCUCAGCGUGUUCUAGCUUGUGAUCCUUCAAAGAUGGGUUAUGUGUUAAUGAUAGAUACUGGAAAUGUUUACUUCUCUCUUUCACUGAUCAGAGAAACAGGCAUUAAAAACAGAAAUAC: 0.448 ratio
CAACGCCAUGGUGGAGGGCUCCGAGCUCAAAAAGGUCCGCUCCAACUCGAGGAUUUACCACCGGUAUUUCUUGCUGGAUGCCGACAUGCAGAGCCUGAGGUGGGAACCAUCCAAGAAGGA: 0.189 ratio
CGUGCUUAUGCUCUUCUAUGAGAGAGAUGAAUUGGGGAGAACUGUCUCCAUUUUAUAGAUUAGUUUCUUUCUAAAUUAUGACCAAAAAUAUUUUGCUAUUUCUUUCUUUGUAUAUGGACA: 0.509 ratio
AGCAACCCAUGGAUUCAGGACUGGUUUUACAAAUAUACCAAGUAGAUACGGAAGUAACAACAGAAUUGGACAGCCAAGACCAUGAUAUACCCUAACUUAUUUUUAUAAGGAAUAUUGACU: 0.781 ratio
CCAGUCUUCCACAUAGGGUCAGCCUCAAAUCUAUAGGAUUUUUGACAAAUGUAUUAUAUCUAGUUGUGUUGAAUUUAGUAUUUUUUUAUUAGCCUGUAAAUAAAGAUGGCCUCUCCUACA: 2.41 ratio
CUUAAUUAGAGGGUAGUAUAUGUUUCAUAAAGAAGAGUCUUUAUAAUUUUGUUGGUCAUAUAGUAUUUUGGAAUUUGUAUAAUGAGGAUGUUUAGAAGCCAUAUCUAUGGCUUUUUUUAA: 0.48 ratio
ACAGGAGCAGCAUAGGCUGUUUGAGCUUUGGGGAAACGAGCUUUGCUUUUUAUAUUUAACUAGGAUACUUUUACGUGAUGGGUGCUUUGAGUGUGAAUGCAGCAGGCUCUUGUUUCCGAG: 0.948 ratio
GCAAUGCCUUCCCGAGCUUGUUCCAGCCAGCACUCGUACUGGGGUCUUCUGACUCUGAAUCUAUAGAAGCCUUUGAUUAUAACUAUUACAUGUGAAAAGAUGAGGAUAAAAUACAACAGA: 0.494 ratio

Study 4 — method: RNA Bind-n-Seq; form: RNA; sample: in vitro; concentration: 200 nM; setting: whole 134-nt RNA, ends assumed; added: 150 mM KCl; baseline: input library; direction: higher = stronger binding; endpoint: log2 enrichment
Target: Fragile X messenger ribonucleoprotein 1, C-terminal low-complexity region (Fmr1, Mus musculus, UniProt P35922)
Constant ends, left off below: GGGAGUUCUACAGUCCGACGAUC … UGGAAUUCUCGGGUGUCAAGG
CUCAAGUCCUGUGCUACACAUCGUAUGUACCGAAUCGGAAAGGAAAGGUUUGGAAAGUAUUAUGUUACGCCGUUCGGAUCUGCACUUCCA: -0.628
GCAGGAAGUAAAAACAAAUGGAAAUGCUUCCGAUAGUGGCAGGGGUGGGGGUUGCUAAGGAAAGGGUGGGAUGGGAGUGGGUAAAGAGUU: 0.169
CAAGUCCUGUGCUACACAUCGUAUGUACCGAAUCGGGGUUGGGGUUGGGGUUGGGGAAAGUAUUAUGUUACGCCGUUCGGAUCUGCACUU: 1.29
AGUCCUGUGCUACACAUCGUAUGUACCGAAUCGGGGAAAGGGGAAAAAGGGGUGGGGAAAGUAUUAUGUUACGCCGUUCGGAUCUGCACU: 0.468
AGUCCUGUGCUACACAUCGUAUGUACCGAAUCAAACCCAAACCCCCAAACCCCCAAAAAAGUAUUAUGUUACGCCGUUCGGAUCUGCACU: -0.332
GUCCUGUGCUACACAUCGUAUGUACCGAAUCGGGUUUUUUUGGGAAAAAAAGGGAGGGAAAGUAUUAUGUUACGCCGUUCGGAUCUGCAC: 0.156
AAGUCCUGUGCUACACAUCGUAUGUACCGAAUCGGGGCCCCGGCCCCGGCCCCGGGAAAGUAUUAUGUUACGCCGUUCGGAUCUGCACUU: -0.782
AAGUCCUGUGCUACACAUCGUAUGUACCGAAUCGGGUGGGAAAGGGAAAAAAAGGGAAAGUAUUAUGUUACGCCGUUCGGAUCUGCACUU: 0.225
UAACUUUAGAGGAGGAUCUGAUGGAUAUGGCAGUGGACGUGGAUUUGGGGAUGACUAUAAUGGGUAUGGAGGAGGACCUGGAGGUGGCAA: 0.413
UCAAGUCCUGUGCUACACAUCGUAUGUACCGAAUCGGGUUGGGGUUGGUUGGGGAAAGUAUUAUGUUACGCCGUUCGGAUCUGCACUUCC: 0.989
GCAGGAAGUAAAAACAAAUGGAAAAGCUUCGGAUAGUGGCAGGGGUGGGGGUUGCUAAGGAAAGGGUGGGAUGGGAGUGGGUAAAGAGUU: 0.133
ACAAAGCAGGUGGGCAUCUUUGGGAAGUGGGGCAAGGGGGGGAUAGGGAGGGGGGUAACACUUUGGGAACAGGUGGUCCCAGGUCGUUUC: 0.915
CCUGUGCUACACAUCGUAUGUACCGAAUCGGGCCCCCCGGGGCCCCCCGGGGCCCCCCGGGAAAGUAUUAUGUUACGCCGUUCGGAUCUG: -0.866
AAGUCCUGUGCUACACAUCGUAUGUACCGAAUCGGGUUUUGGGUUUUGGUUUUGGGAAAGUAUUAUGUUACGCCGUUCGGAUCUGCACUU: -0.277

A few entries again (study 1):
2'F-ANA at 3 6 8 11 12 13 15: 966 a.u.
2'F-ANA at 4 5 7 10 12 13 14 15: 47.3 a.u.
2'F-ANA at 2 3 5 7 8 10 14 15: 50.7 a.u.
